{"data": "Results from different studies", "note": "Each numbered part is a random draw from the data of one study; scales do not carry over between parts."}
{"data": "Block 1", "target": "Histone acetyltransferase KAT6A, winged helix 2, GST fusion (KAT6A, Homo sapiens, UniProt Q92794, residues 85-181)", "technique": "protein binding microarray", "molecule type": "double-stranded DNA, one strand shown", "matrix": "in vitro", "tested at": "not given", "notes": "8-mer, flanks averaged, mean of 2 arrays, mostly near background", "relative to": "not given", "reading": "higher = stronger binding", "Target sequence (chain)": "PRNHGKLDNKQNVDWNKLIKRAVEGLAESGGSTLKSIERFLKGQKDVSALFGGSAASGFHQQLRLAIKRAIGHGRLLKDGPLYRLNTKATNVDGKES"}
{"Oligonucleotide": "CTTTCACA", "E-score": 0.127}
{"Oligonucleotide": "AGTTAAAC", "E-score": 0.0247}
{"Oligonucleotide": "ATCCCAGA", "E-score": 0.0737}
{"data": "Block 2", "target": "Sal-like protein 4, full length isoform B (SALL4, Homo sapiens, UniProt Q9UJQ4-2, residues 1-616)", "technique": "universal PBM", "molecule type": "double-stranded DNA, one strand shown", "matrix": "in vitro", "tested at": "not given", "notes": "8-mer, flanks averaged, mean of replicates", "reading": "higher = stronger binding"}
{"Oligonucleotide": "AAGTGTAC", "E-score": 0.177}
{"Oligonucleotide": "CTTGCGGC", "E-score": -0.269}
{"Oligonucleotide": "AGGCATAG", "E-score": -0.0785}
{"data": "Single results of other studies", "CBF1 full length, N-terminal tag": "Centromere-binding protein 1, full length, N-terminal tag (CBF1, Saccharomyces cerevisiae, UniProt P17106, residues 1-351)", "PHO4 full length, GST-tagged": "Phosphate system positive regulatory protein PHO4, full length, GST-tagged (PHO4, Saccharomyces cerevisiae, UniProt P07270, residues 1-312)", "sequence of UniProt P07270 (whole entry, looked up)": "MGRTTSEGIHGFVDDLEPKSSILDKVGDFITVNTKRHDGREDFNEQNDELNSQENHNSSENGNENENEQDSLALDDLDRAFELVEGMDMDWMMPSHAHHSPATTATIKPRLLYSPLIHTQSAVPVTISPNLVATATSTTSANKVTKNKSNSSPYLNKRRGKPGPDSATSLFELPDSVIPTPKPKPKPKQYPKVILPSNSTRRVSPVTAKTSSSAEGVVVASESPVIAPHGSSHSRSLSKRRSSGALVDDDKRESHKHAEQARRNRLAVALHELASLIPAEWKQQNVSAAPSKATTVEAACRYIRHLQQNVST", "sequence of UniProt P17106 (whole entry, looked up)": "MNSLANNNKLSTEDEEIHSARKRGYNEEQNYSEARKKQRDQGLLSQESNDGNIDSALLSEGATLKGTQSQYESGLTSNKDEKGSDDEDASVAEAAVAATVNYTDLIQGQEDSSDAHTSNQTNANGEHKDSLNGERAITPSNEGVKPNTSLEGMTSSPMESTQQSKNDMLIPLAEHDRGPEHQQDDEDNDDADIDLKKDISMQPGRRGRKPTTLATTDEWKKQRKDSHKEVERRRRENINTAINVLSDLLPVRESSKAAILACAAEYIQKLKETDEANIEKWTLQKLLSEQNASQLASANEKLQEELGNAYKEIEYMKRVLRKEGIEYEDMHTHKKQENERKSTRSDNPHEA"}
{"Molecule": "GAATAAAGATGAGATCACGCCCAGATTTTGTCTTAGGTCTTGATTCGCTTGACGCTGCTG", "target": "CBF1 full length, N-terminal tag", "assay": "protein-binding microarray", "system": "double-stranded DNA, one strand shown, in vitro", "setting": "0.8 µM, whole 60-bp probe, no competitor", "scale": "higher = stronger binding", "measurement": "fluorescence intensity", "value": "727 a.u."}
{"Molecule": "PhoQ, residues 284 288 289 292 302 303 ASASEQ", "target": "PhoP, residues 12 14 15 18 19 LYHSL (Escherichia coli, UniProt P23836)", "assay": "Sort-seq, measured: YFP reporter", "system": "E. coli", "setting": "PhoQ-PhoP variant library, with: 10 µM Mg2+", "scale": "relative to: high Mg2+ state, higher = stronger signaling", "measurement": "fold induction", "value": 6.49}
{"Molecule": "AATAATTTATTTTATCATGTGACGCCGATCCGGGTGGTCTTGATTCGCTTGACGCTGCTG", "target": "PHO4 full length, GST-tagged", "assay": "competition protein-binding microarray", "system": "double-stranded DNA, one strand shown, in vitro", "setting": "2 µM, whole 60-bp probe, lowest competitor level, with: Cbf1 competitor, 0.05 µM", "scale": "higher = stronger binding", "measurement": "fluorescence intensity", "value": "7660 a.u."}
{"Molecule": "CATACCCAACCTTGACTAGTGGGTGAAGATATTTGTGTCTTGATTCGCTTGACGCTGCTG", "target": "PHO4 full length, GST-tagged", "assay": "competition protein-binding microarray", "system": "double-stranded DNA, one strand shown, in vitro", "setting": "2 µM, whole 60-bp probe, lowest competitor level, with: Cbf1 competitor, 0.05 µM", "scale": "higher = stronger binding", "measurement": "fluorescence intensity", "value": "3580 a.u."}
{"Molecule": "CCTAACTACTATAGCTAGCTGATATAGCTTCGTACAGTCTTGATTCGCTTGACGCTGCTG", "target": "CBF1 full length, N-terminal tag", "assay": "protein-binding microarray", "system": "double-stranded DNA, one strand shown, in vitro", "setting": "0.8 µM, whole 60-bp probe, no competitor", "scale": "higher = stronger binding", "measurement": "fluorescence intensity", "value": "524 a.u."}
{"note": "For quick reference, copied from above (block 2):"}
{"Oligonucleotide": "AAGTGTAC", "E-score": 0.177}
